Published values of several laboratories.
Compare with care: the assays were run in different laboratories. ± marks the error that the study gave.

SMILES = CONC(=O)/C=C/c1cccc(S(=O)(=O)Nc2ccccc2)c1; system = patients with normal liver function, plasma; conditions = intravenous, 400 mg/m^2 belinostat, single 30 min infusion, cycle 1 day -7, mean; Cmax = 2100 ng/mL
SMILES = CC[C@@H](C)[C@H]1NC(=O)[C@@H]([C@H](C)O)NC(=O)[C@@H](Cc2c[nH]cn2)NC(=O)CNC(=O)[C@@H](CCCNC(=N)N)NC(=O)CNC(=O)[C@@H](Cc2ccccc2)NC1=O; system = New Zealand white rabbit, female, vitreous; conditions = ocular, 0.5% eye drop; Cmax = ~239 nM
SMILES = Cc1ccccc1-c1cc(N2CCNCC2)ncc1N(C)C(=O)C(C)(C)c1cc(C(F)(F)F)cc(C(F)(F)F)c1; system = healthy volunteers, plasma; conditions = oral, dose not given; Cmax = 39.2 to 46.8 ng/mL
SMILES = CC(C)(Sc1ccncc1-c1ccc(C#N)c2ccccc12)C(=O)OC1OC(C(=O)O)C(O)C(O)C1O (stereo not drawn); system = plasma; conditions = oral, 15 mg, moderate renal impairment, fasted; Cmax = 54.6 ng/mL
SMILES = O=C(O)c1cccc(S(=O)(=O)Nc2ccccc2)c1; system = patients with severe liver dysfunction, plasma; conditions = intravenous, 400 mg/m^2 belinostat, single 30 min infusion, cycle 1 day -7, mean; Cmax = 1880 ng/mL
SMILES = CC(C)(Sc1cc[n+]([O-])cc1-c1ccc(C#N)c2ccccc12)C(=O)OC1OC(C(=O)O)C(O)C(O)C1O (stereo not drawn); system = plasma; conditions = oral, 15 mg, normal renal function, fasted; Cmax = 23.6 ng/mL
SMILES = CC(C)[C@H](NC(=O)CNC(=O)[C@H](CCC(N)=O)NC(=O)[C@H](C)N)C(=O)O; system = healthy volunteers, LPS endotoxaemia, plasma; conditions = intravenous, 45 mg/kg/h, 2 h infusion, geometric mean, with: LPS 2 ng/kg; Cmax = 6030 ng/mL
SMILES = Cc1ccccc1-c1cc(N2CC[N+](C)([O-])CC2)ncc1N(C)C(=O)C(C)(C)c1cc(C(F)(F)F)cc(C(F)(F)F)c1; system = cancer patients, plasma; conditions = oral, dose not given, netupitant-palonosetron single dose, range of means; Cmax = 215 to 361 ng/mL
SMILES = COc1cc(C)c(Cc2ccc(O)cc2)cc1[C@@H]1S[C@H](CO)[C@@H](O)[C@H](O)[C@H]1O; system = Japanese T2DM patients, plasma; conditions = 5 mg luseogliflozin, day 1, once daily; Cmax = 8.9 ± 1.22 ng/mL

Some of these lines once more:
SMILES = O=C(O)c1cccc(S(=O)(=O)Nc2ccccc2)c1; system = patients with severe liver dysfunction, plasma; conditions = intravenous, 400 mg/m^2 belinostat, single 30 min infusion, cycle 1 day -7, mean; Cmax = 1880 ng/mL
